# Experimental data collected from several papers.
# Parts stem from different laboratories: compare values within a part only.

# Set 1
# Target: Phosphate system positive regulatory protein PHO4, full length, GST-tagged (PHO4, Saccharomyces cerevisiae, UniProt P07270, residues 1-312)
# Method: competition protein-binding microarray
# Form: double-stranded DNA, one strand shown
# Medium: in vitro
# Concentration: 2 µM
# Notes: whole 60-bp probe, lowest competitor level
# Added: Cbf1 competitor, 0.05 µM
# Direction: higher = stronger binding
# All sequences stand within: … GTCTTGATTCGCTTGACGCTGCTG
# Target sequence (chain): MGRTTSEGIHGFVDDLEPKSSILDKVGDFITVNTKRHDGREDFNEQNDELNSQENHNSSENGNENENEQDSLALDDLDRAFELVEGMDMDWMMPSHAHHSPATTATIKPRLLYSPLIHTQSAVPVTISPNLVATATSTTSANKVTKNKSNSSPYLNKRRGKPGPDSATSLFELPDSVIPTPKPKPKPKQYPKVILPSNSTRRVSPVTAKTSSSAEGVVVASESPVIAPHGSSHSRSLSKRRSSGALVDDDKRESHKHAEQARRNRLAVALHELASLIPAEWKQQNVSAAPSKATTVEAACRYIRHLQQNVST
Strand,fluorescence intensity
TAACGGCTATCCCATCACGTTCTCACCGAGGAGACC,11700 a.u.
TTAAATCGATTGGATCAGGTGAGGAAGTACTCAGTG,3350 a.u.
ATGCGAGACTTGGATAACGTGTTGAGCATCGAAATA,8940 a.u.
TGCGCAACAACTTTTCACGTGCGCTTATGTCTAGAA,13200 a.u.
CGTCCTAGTGATTGTCACGATACTTCCATGAGGAAG,6390 a.u.
GCGAAATTATAGGGTCAGGTGATATTTGCGATGTGA,3460 a.u.
GTCTTGTCTCATTGTCACGTGACTTTCCCCACTTCA,12100 a.u.
AAATTACTAAGTTTTCACGTGTAGTACCCCGTATGA,13600 a.u.
CAAAATGGCAACTGGCACGTGAAGCTGTCGATATTG,17600 a.u.
CTTCTGTAAATTTGTCACCGTACTTGACGCGCCCCG,3330 a.u.
AGGATCTCTTAGGAATTCGTGACGGGGTATCCCATT,3660 a.u.
CGCCGACGACGCCGACACGCACCGTTCTACTCGCTC,6650 a.u.
TACTTCGATGCCCAACACGTTATTCACATCTCTCAA,8240 a.u.
AAAAGTTTAAACTGGCACGGGCTATTGCGTCTCATA,8730 a.u.
TGCGCAACAACTTGGCATGTGGGTGTATGTCTAGAA,10300 a.u.
AAACTATTTTTGGCAGACGTGTTGACTGATGATGAT,6460 a.u.
CCTTTACTTAATACACAGGGGCAAGCCAATGTTCAA,3780 a.u.
CATACCCAACCTTGCGCAGTGGGTGAAGATATTTGT,4090 a.u.
AAACATAGGACGGAACACGTGTGAAAGACAAATCTT,17100 a.u.
TTCACTTGTTTGAAAAACGTGTCGGAGGGATGTTCT,11600 a.u.

# Set 2
# Target: Hepatocyte nuclear factor 3-alpha (Foxa1, Mus musculus, UniProt P35582, residues 1-468, full length assumed)
# UniProt P35582, sequence (whole entry, looked up): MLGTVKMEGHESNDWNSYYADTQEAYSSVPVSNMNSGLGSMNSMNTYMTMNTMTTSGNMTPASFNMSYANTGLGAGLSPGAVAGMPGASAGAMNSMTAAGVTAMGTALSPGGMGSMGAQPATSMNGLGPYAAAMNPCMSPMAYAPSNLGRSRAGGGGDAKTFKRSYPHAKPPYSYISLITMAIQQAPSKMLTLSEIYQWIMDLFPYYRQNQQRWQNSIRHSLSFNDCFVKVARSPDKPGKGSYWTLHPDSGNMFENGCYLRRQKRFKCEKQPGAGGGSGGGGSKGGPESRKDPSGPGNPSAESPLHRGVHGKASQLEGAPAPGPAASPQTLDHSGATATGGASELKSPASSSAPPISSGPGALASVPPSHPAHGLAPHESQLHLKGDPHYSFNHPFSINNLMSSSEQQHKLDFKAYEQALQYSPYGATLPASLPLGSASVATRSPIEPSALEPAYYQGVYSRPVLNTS
# Method: EMSA with sequencing
# Form: double-stranded DNA, one strand shown
# Medium: in vitro
# Concentration: 10 and 20 nM
# Notes: whole designed probe, mean of two concentrations, ends assumed
# Reference: negative control set to 0
# Direction: higher = stronger binding
# All sequences stand within: GTGAGCGGTGCCCATTGATGGGGAAC … TTTCACTGGGATCGTGGGGAC
Strand,normalised bound fraction
CACCGCGCTCGCACGGCTTTGTCCGTGCTACAAAGCAGCCTGTTAAACTATTGGAACTAATGCGCCGCAGCTGCGCGAGTGACTTCTGCTGCTTATGTACATAAAAAGTCCTGTAAGGGGGAGGGCTCCATCAGATGCCTGCTGCTGGGTTGTTTGGCTAGTCTTTCCATTTGCTTATTCCTGAATCCAAAGG,0.339 ratio
ATCTTCCCCCTCTTCCTTGCCCCACCAGCTCACCTTCCCGGGTTATTTGCACAAAGGAAAATAAATAAAGCCGGCATTCGTTAACGCAGTTCACGCGCATACTGCTGTTTGCTCTGGATGAATCATGGTCCTTTGGCGAGGCGTGGCTCCGGGAGAGCAAAGCACCGTGTCAGGGCCATGATCCGGGCTCGCC,0.37 ratio
ATCTTCCCCCTCTTCCTTGCCCCACCAGCTCACCTTCCCGGGTTATTTGCAGATAGTATTTATTTTCAAGCCGGCATTCGTTAACCCTCTTCTGGCGCAAACTGCCAGAGCAAACAGATGAATCATGGTCCTTTGGCGACGCCAGGCTCCGGGAGAGCAAAGCACCGTGTCAGGGCCATGATCCGGGGTGGCC,0.266 ratio
GAATCATGCACAATTGTACCAGGCAGCCCCGAGCCAAGCCCTTTTATGACTTCCTTCCTTTCCACATATTGCTTCCCCTGCCACAACTGCCCTAGATTGCCTTTCCTCCCCCCATTTCTTTATATGGTGCAACATCTAACACTTAGTTCTCAAATTCTGCCCAAATATAATCCTGGTGAACACAAACATAACA,-0.0175 ratio
GAACAAAATACTTTTTGGCCTGCTTAATGTGGGAGAACATATAGACTTTTCTAGTTTCAGAGGTACTGGGAGACACTCCACATCACCTCAGTGTAATCTAGTGGTTCAGATCTCTGCTGTGAATATAGGCAGCTTTGGCTAAAATCCTGTTTTGTTTTGTTTTCTTTTTTGTTTTACAATAACTTAGTAACTT,0.0612 ratio
TTTCCAGCCCTTAGTTTCTGGCATTTAACCTGACTCTGGTCCCTGAATGGCATGGGAGTGCTTTCAACCACAGGTTTCCACATTCATGCCACTTGTTTGCTTTTTGATCTACAGAGATCTTTATCTGACTCATTCTTGCTTTGTGTTTCCAATGGAGAAAGAGCTTGGGAAGGGAGGATCCTAATTGTCTAAA,0.287 ratio
GTGGTGTCCTGTGAGTCGTGGGAACTAGTCATTCCTTCCCAGTGAGAAAGTTAGGATTTATTTGAACAGACATACTCATACGAAACCTTTCTTATTTGCCCAGACATGGGTCAACATTGCTCCAGAAAAGAGTGGCTGGTGTAACGTTTCCATGATCCTTGATGCCATGATGAAAAAGCACTTGGTGAGTGTG,0.236 ratio
ATCTTCCCCCTCTTCCTTGCCCCACCAGCTCACCTTCCCGGGTTATTTGCAGATAGGAAAATAAATAAAGCCGGCATTCGTTAACCCTCTTCTGGCGCAAACTGCTGTTTGCTCTGGTCCTTTGGATGAATCATGGCGACGCCAGGCTCCGGGAGAGCAAAGCACCGTGTCAGGGCCATGATCCGGGGTGGCC,0.386 ratio

# Set 3
# Target: Eukaryotic initiation factor 4A-I (EIF4A1, Homo sapiens, UniProt P60842, residues 1-406, full length assumed)
# UniProt P60842, sequence (whole entry, looked up): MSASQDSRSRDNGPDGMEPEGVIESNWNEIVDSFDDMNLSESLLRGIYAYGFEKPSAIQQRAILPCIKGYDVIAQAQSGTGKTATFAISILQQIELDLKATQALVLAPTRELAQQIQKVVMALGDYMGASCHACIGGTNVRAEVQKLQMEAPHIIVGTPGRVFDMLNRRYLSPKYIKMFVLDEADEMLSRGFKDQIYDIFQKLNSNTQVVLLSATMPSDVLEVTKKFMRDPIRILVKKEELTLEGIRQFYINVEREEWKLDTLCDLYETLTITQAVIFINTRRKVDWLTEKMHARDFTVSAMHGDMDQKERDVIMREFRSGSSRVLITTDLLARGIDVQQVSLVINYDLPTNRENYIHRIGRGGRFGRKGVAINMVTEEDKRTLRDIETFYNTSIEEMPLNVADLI
# Method: RNA Bind-n-Seq
# Form: RNA
# Medium: in vitro
# Concentration: not given
# Notes: 4-mer, random 30-nt RNA, single round
# Added: RocA, ADP, phosphate
# Reference: input library
# Direction: higher = stronger binding
Strand,4-mer enrichment
GGCC,0.646 fold
UUCG,0.728 fold
CUGC,0.587 fold
AAUG,1.19 fold
CAGA,1.29 fold
AAGU,1.27 fold
AUAC,0.698 fold
GAAA,1.66 fold
CUUG,0.722 fold
CUAU,0.658 fold
AUCU,0.606 fold
CGUG,0.869 fold

# Set 4
# Target: Histone acetyltransferase KAT6A, both winged helices, GST fusion (KAT6A, Homo sapiens, UniProt Q92794, residues 1-181)
# Method: protein binding microarray
# Form: double-stranded DNA, one strand shown
# Medium: in vitro
# Concentration: not given
# Notes: 8-mer, flanks averaged, mean of 2 arrays, mostly near background
# Reference: not given
# Direction: higher = stronger binding
# Residues (chain): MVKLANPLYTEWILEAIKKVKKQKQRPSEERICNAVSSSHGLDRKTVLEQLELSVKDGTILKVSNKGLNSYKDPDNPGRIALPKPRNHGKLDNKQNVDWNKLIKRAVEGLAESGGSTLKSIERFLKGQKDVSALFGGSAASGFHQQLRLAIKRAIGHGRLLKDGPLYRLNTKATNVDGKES
Strand,E-score
ACGAGCCA,-0.277
GACATGGA,-0.0349
GTGTTGGA,-0.24
CCGCATAC,0.143
GGCAGTAA,0.031
AGTTGTTA,-0.0312
CAAGAAAA,-0.0871
TGATTCAA,0.0586
CACATGCA,-0.0619
GGGCCTAA,-0.0985
ACTCCTCA,-0.189
GAGGCGTA,0.079
ACACATGC,0.0253
TGGTCCAA,0.00077
CTGGCAAG,-0.185
AATAGCTA,-0.0198
CGACGCGC,0.341
AACGCATA,0.145

# Set 5
# Target: Sal-like protein 4, full length isoform B (SALL4, Homo sapiens, UniProt Q9UJQ4-2, residues 1-616)
# Method: universal PBM
# Form: double-stranded DNA, one strand shown
# Medium: in vitro
# Concentration: not given
# Notes: 8-mer, flanks averaged, mean of replicates
# Direction: higher = stronger binding
# Target sequence (chain): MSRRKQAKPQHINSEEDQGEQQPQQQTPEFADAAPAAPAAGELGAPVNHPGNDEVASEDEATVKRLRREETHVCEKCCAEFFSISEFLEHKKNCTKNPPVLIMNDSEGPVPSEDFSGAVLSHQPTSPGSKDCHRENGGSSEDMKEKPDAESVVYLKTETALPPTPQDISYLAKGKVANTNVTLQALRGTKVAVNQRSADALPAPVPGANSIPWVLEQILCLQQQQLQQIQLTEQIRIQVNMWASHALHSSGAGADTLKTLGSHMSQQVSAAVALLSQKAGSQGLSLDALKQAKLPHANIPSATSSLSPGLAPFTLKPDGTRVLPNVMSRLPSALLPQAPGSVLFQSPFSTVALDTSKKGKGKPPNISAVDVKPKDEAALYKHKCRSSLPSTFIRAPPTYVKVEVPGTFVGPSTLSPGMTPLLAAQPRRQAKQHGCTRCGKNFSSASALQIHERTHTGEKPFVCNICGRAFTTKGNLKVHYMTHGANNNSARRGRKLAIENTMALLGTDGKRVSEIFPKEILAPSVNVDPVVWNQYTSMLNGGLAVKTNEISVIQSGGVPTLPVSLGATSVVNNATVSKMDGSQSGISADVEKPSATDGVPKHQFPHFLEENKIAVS
Strand,E-score
ATGACAGC,0.0259
ATAGCTGA,0.0907
ACCTCCTA,0.014
TATACCCA,0.122
CTCTAGAG,-0.146
TCGGAGAA,-0.1
GTGCAACA,-0.0783
GCAATTAC,0.0792
CAATGAAG,-0.0514
ACAGTGCC,-0.135
AAAGGGTG,0.0258
TAGTGACA,0.133
GAAACCAA,-0.0133
ACCGGCAG,-0.374
ACACCGAA,-0.0722
GAGGCCTC,-0.229
AGGCTACT,0.0215
CGGCGTAA,-0.0143
ACATCTAT,0.257

# Excerpt of the above (set 5):
Strand,E-score
TCGGAGAA,-0.1
GTGCAACA,-0.0783
GCAATTAC,0.0792
CAATGAAG,-0.0514
